Measurements pooled from the literature.
± gives the spread as reported. Values after ≈ are worked out from the molar mass of the structure shown.
UniProt Q9Y5Y9, sequence (whole entry, looked up): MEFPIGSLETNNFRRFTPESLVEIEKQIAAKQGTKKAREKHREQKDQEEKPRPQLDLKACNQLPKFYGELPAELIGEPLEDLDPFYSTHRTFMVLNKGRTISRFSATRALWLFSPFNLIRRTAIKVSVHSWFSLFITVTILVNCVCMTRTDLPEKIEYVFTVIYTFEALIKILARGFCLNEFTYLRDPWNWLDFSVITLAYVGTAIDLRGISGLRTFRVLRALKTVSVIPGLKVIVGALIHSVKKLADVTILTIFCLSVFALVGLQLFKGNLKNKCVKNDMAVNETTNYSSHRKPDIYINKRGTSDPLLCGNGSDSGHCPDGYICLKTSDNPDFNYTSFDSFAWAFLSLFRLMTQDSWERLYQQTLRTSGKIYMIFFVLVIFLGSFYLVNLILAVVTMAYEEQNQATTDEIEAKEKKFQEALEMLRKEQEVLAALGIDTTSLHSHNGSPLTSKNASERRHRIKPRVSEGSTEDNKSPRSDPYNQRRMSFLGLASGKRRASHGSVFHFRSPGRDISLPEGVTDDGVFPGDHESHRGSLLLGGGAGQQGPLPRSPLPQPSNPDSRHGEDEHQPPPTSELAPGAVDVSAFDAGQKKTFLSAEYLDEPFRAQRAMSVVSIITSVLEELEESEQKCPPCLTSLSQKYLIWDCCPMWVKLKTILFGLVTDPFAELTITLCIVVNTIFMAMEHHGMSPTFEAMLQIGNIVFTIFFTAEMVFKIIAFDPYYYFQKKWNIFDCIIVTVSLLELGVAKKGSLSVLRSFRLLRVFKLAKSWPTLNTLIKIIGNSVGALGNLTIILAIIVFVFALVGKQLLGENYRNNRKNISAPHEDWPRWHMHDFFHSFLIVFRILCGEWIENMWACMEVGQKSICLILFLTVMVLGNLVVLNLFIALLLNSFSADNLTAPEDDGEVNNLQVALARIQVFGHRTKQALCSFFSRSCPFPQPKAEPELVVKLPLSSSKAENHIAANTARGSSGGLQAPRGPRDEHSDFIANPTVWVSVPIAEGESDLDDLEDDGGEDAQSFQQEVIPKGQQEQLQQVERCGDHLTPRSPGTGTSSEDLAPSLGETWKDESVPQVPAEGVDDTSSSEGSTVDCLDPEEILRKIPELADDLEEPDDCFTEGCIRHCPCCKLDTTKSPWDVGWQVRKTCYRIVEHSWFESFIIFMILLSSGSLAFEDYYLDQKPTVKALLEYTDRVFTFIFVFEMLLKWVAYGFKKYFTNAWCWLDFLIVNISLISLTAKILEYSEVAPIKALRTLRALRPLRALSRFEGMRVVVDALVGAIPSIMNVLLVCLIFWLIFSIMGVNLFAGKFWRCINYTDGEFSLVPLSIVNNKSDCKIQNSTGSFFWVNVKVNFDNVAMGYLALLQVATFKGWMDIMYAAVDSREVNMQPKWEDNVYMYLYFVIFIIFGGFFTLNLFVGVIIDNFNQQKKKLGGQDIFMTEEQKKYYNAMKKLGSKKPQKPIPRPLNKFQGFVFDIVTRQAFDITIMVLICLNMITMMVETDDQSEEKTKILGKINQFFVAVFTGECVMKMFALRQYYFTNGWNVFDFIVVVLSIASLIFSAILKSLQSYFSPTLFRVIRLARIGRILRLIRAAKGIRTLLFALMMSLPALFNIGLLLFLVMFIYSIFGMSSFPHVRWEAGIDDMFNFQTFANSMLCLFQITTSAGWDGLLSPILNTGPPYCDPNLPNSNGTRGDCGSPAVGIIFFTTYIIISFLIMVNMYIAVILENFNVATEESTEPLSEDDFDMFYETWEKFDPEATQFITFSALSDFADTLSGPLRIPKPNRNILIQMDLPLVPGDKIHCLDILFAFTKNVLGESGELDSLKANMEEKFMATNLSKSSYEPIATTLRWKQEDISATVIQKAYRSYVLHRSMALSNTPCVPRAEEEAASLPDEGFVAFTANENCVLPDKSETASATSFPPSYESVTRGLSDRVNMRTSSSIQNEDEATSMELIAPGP

CC[C@H](C)[C@@H]([C@@H](CC(=O)N1CCC[C@H]1[C@H](OC)[C@@H](C)C(=O)N[C@H](C)[C@@H](O)c1ccccc1)OC)N(C)C(=O)[C@@H](NC(=O)[C@H](C(C)C)N(C)C(=O)OCc1ccc(NC(=O)[C@H](CCCNC(N)=O)NC(=O)[C@@H](NC(=O)CCCC(=O)NCCC(=O)N(C)CC(=O)N(C)CC(=O)N(C)CC(=O)N(C)CC(=O)N(C)CC(=O)N(C)CC(=O)N(C)CC(=O)N(C)CC(=O)N(C)CC(=O)N(C)CC(=O)N[C@H]2CSCCC(=O)N3CN4CN(C3)C(=O)CCSC[C@H](NC(=O)[C@@H](CC(=O)O)NC(=O)[C@H](Cc3cccc5ccccc35)NC(=O)[C@@H]3CCCN3C2=O)C(=O)N[C@@H](CCSC)C(=O)N[C@@H](CCCCNC(=N)N)C(=O)N[C@@H](CC(=O)O)C(=O)N[C@@H](Cc2c[nH]c3ccccc23)C(=O)N[C@@H](CO)C(=O)N[C@@H]([C@@H](C)O)C(=O)N2CCC[C@H]2C(=O)N2C[C@H](O)C[C@H]2C(=O)N[C@@H](Cc2c[nH]c3ccccc23)C(=O)N[C@H](C(N)=O)CSCCC4=O)C(C)C)cc1)C(C)C
half-life (mouse, plasma; intravenous, 3 mg/kg): ~1 h

CC(C)N1CCn2cc(C(=O)NCc3ccc(F)cc3F)c(=O)c(O)c2C1=O
EC50 (HIV-1; viral replication, single-round vector infection; IN E138K/G140S/Q148H): 92.3 ± 3.3 nM

CCCCCCCCCCCCCCCC(=O)N[C@@H](CCC(=O)NCCCC[C@H](NC(=O)[C@H](CC(=O)O)NC(=O)[C@H](CO)NC(=O)[C@@H](NC(=O)[C@H](Cc1ccccc1)NC(=O)[C@@H](NC(=O)CNC(=O)[C@H](CCC(N)=O)NC(=O)[C@H](C)NC(=O)[C@@H](Cc1ccc(O)cc1)NC(C)=O)[C@@H](C)O)[C@@H](C)O)C(=O)N[C@@H](CO)C(=O)N[C@@H](CCCCN)C(=O)N[C@@H](Cc1ccc(O)cc1)C(=O)N[C@@H](CC(C)C)C(=O)N[C@@H](CC(=O)O)C(=O)N[C@@H](CCC(=O)O)C(=O)N[C@@H](CCCNC(=N)N)C(=O)N[C@@H](C)C(=O)N[C@@H](C)C(=O)N[C@@H](CCC(N)=O)C(=O)N[C@@H](CC(=O)O)C(=O)N[C@@H](Cc1ccccc1)C(=O)N[C@H](C(=O)N[C@@H](CCC(N)=O)C(=O)N[C@@H](Cc1c[nH]c2ccccc12)C(=O)N[C@@H](CC(C)C)C(=O)N[C@@H](CC(C)C)C(=O)N[C@@H](CCC(=O)O)C(=O)NCC(=O)NCC(=O)N1CCC[C@H]1C(=O)N[C@@H](CO)C(=O)N[C@@H](CO)C(=O)NCC(=O)N[C@@H](C)C(=O)N1CCC[C@H]1C(=O)N1CCC[C@H]1C(=O)N1CCC[C@H]1C(=O)N[C@@H](CO)C(N)=O)C(C)C)C(=O)O
Cmax (male Wistar rat, plasma; intravenous, 0.02 mg/kg): 312 ng/mL

CC(C)n1ccn2cc(C(=O)NCc3ccc(F)cc3F)c(=O)c(O)c2c1=O
EC50 (HIV-1; viral replication, single-round vector infection; IN E138K/G140S/Q148H): 207 ± 5.5 nM

Cc1cccc(-c2cc(C#N)cc(Oc3c(C(F)(F)F)ccn(Cc4n[nH]c(=O)n4C)c3=O)c2)c1
EC50 (HIV-1; viral cytopathicity; MT4, Y181C mutant): 58 ± 21 nM

Cc1cc(C)cc(S(=O)(=O)c2c(C(=O)NC3CC4(C3)CN(Cc3n[nH]c(=O)[nH]3)C4)[nH]c3ccc(Cl)cc23)c1
EC50 (HIV-1; viral replication; MT-4, Y181C mutant): 250 ± 18 nM

Cc1cc(/C=C/C#N)cc(C)c1-n1cnc2cnc(Nc3ccc(C#N)cc3)nc21
EC50 (HIV-1; viral replication, single-round infection; RT mutant V106A/F227L/L234I): 0.7 ± 0.3 nM

O=C(NCc1ccc(F)cc1F)c1c(O)c2cccnc2n(O)c1=O
EC50 (HIV-1; viral replication; infected cells, integrase Y143R mutant): 11 ± 2 nM

CC(C)C[C@@H]1NC(=O)[C@H](CCCNC(=N)N)NC(=O)[C@@H]2CCCN2C(=O)[C@@H]2CSSC[C@H](NC(=O)CNC(=O)[C@@H]3CCCN3C(=O)[C@H](CCCCN)NC(=O)[C@H](CC(=O)O)NC(=O)[C@@H](NC(=O)CN)C(C)C)C(=O)N[C@@H](CCCNC(=N)N)C(=O)N[C@@H](Cc3ccc(O)cc3)C(=O)N[C@@H](CC(C)C)C(=O)N[C@@H](Cc3ccccc3)C(=O)NCC(=O)NCC(=O)N[C@H]3CSSC[C@H](NC(=O)CNC1=O)C(=O)N[C@@H](CCCCN)C(=O)NCC(=O)N[C@@H](CCCCN)C(=O)NCC(=O)N[C@@H](Cc1c[nH]cn1)C(=O)N[C@@H](CC(=O)O)C(=O)N[C@@H](Cc1ccc(O)cc1)C(=O)N[C@H](C(=O)N[C@@H](C)C(=O)N[C@@H](Cc1c[nH]c4ccccc14)C(=O)N[C@@H](CC(=O)O)C(=O)NCC(=O)N[C@H](C(=O)N[C@@H](Cc1ccccc1)C(=O)N[C@@H](CO)C(=O)N[C@@H](CC(=O)O)C(=O)O)[C@@H](C)O)CSSC[C@H](NC(=O)[C@H](CC(=O)O)NC(=O)[C@H](CC(=O)O)NC(=O)[C@H](CC(=O)O)NC(=O)[C@H](CO)NC(=O)[C@H](CCCCN)NC3=O)C(=O)N2
activation V0.5 (Sodium channel protein type 10 subunit alpha (SCN10A, Homo sapiens, UniProt Q9Y5Y9); 1 µM): -14.5 ± 0.8 mV

CCCCCCCCCCCCCCCC(=O)N[C@@H](CCC(=O)NCCOCCOCCC(=O)NCCOCCOCCC(=O)NCCCC[C@H](NC(=O)[C@H](CC(=O)O)NC(=O)[C@H](CC(C)C)NC(=O)[C@H](Cc1ccc(O)cc1)NC(=O)[C@H](CCCCN)NC(=O)[C@H](CO)NC(=O)[C@H](Cc1ccc(O)cc1)NC(=O)[C@H](CC(=O)O)NC(=O)[C@H](CO)NC(=O)[C@@H](NC(=O)[C@H](Cc1ccccc1)NC(=O)[C@@H](NC(=O)CNC(=O)[C@H](CCC(N)=O)NC(=O)[C@@H](CO)NC(=O)[C@@H](N)Cc1c[nH]cn1)[C@@H](C)O)[C@@H](C)O)C(=O)N[C@@H](CCCNC(=N)N)C(=O)N[C@@H](CCCNC(=N)N)C(=O)N[C@@H](C)C(=O)N[C@@H](CCC(N)=O)C(=O)N[C@@H](CC(=O)O)C(=O)N[C@@H](Cc1ccccc1)C(=O)N[C@H](C(=O)N[C@@H](CCC(N)=O)C(=O)N[C@@H](Cc1c[nH]c2ccccc12)C(=O)N[C@@H](CC(C)C)C(=O)N[C@@H](CC(C)C)C(=O)N[C@@H](CC(N)=O)C(=O)N[C@H](C(=O)NCC(=O)NCC(=O)N1CCC[C@H]1C(=O)N[C@@H](CO)C(=O)N[C@@H](CO)C(=O)NCC(=O)N[C@@H](C)C(=O)N1CCC[C@H]1C(=O)N1CCC[C@H]1C(=O)N1CCC[C@H]1C(=O)N[C@@H](CO)C(N)=O)[C@@H](C)O)C(C)C)C(=O)O
half-life (rhesus monkey, plasma; subcutaneous, 60 µg/kg, single dose): 2.47 h

Cc1cc(C)cc(S(=O)(=O)c2c(C(N)=O)[nH]c3ccc(Cl)cc23)c1
EC50 (HIV-1; viral replication; MT-4, K103N/Y181C mutant (RES056)): 1800 ± 290 nM

CC[C@H](C)[C@@H]1NC(=O)[C@H](CC(C)C)NC(=O)[C@@](C)(NC(=O)[C@H](Cc2ccccc2)NC(=O)[C@H](Cc2ccc(O)cc2)NC(=O)[C@H](C)NC(=O)[C@@H](N)[C@@H](C)O)CCCC=CCCC[C@@](C)(C(=O)NCC(=O)N[C@@H](CCCNC(=N)N)C(=O)N[C@@H](Cc2c[nH]c3ccccc23)C(N)=O)NC(=O)[C@H](CC(C)C)NC1=O
EC50 (HIV-1): 5000 ± 2000 nM

O=C(NCc1ccc(F)cc1F)c1cc2cccnc2n(O)c1=O
EC50 (HIV-1; viral replication; infected cells, integrase G140S/Q148H mutant): 438 ± 121 nM

N#Cc1ccc(Nc2nccc(C(=O)c3c(F)cc(F)cc3F)n2)cc1
EC50 (HIV-1; viral replication; MT4, RT Y181C mutant): 6660 nM

CC[C@@H](C)[C@@H](NC(=O)[C@@H](CCCCN)NC(=O)[C@@H](CCCCN)NC(=O)[C@@H](CC(C)C)NC(=O)[C@@H](Cc1c[nH]c2ccccc12)NC(=O)CN)C(=O)NCC(=O)N[C@H](CCCCN)C(=O)N[C@H](CCCCN)C(=O)N[C@@H](C(=O)N[C@H](CCC(=O)O)C(=O)N[C@H](CCCNC(=N)N)C(=O)N[C@@H](C(=O)NCC(=O)N[C@H](CCC(N)=O)C(=O)N[C@H](Cc1c[nH]cn1)C(=O)N[C@@H](C(=O)N[C@H](CCCNC(=N)N)C(=O)N[C@H](CC(=O)O)C(=O)N[C@H](C)C(=O)N[C@@H](C(=O)N[C@@H](C(=O)N[C@H](CCC(N)=O)C(=O)N[C@@H](C(=O)N[C@@H](C(=O)NCC(=O)N[C@@H](C(=O)N[C@H](C)C(=O)N[C@H](CCC(N)=O)C(=O)N[C@H](CCC(N)=O)C(=O)N[C@H](C)C(=O)N[C@H](C)C(=O)N[C@H](CC(N)=O)C(=O)N[C@@H](C(=O)N[C@H](C)C(=O)N[C@H](C)C(=O)N[C@@H](C(=O)N[C@H](CC(C)C)C(=O)N[C@H](CCCCN)C(N)=O)[C@H](C)O)C(C)C)C(C)C)[C@H](C)CC)[C@H](C)O)[C@H](C)CC)[C@H](C)O)[C@H](C)O)C(C)C)[C@H](C)CC
MIC (Acinetobacter baumannii; broth microdilution; ATCC 19606, CAMHB): 256 µg/mL (≈ 61 µM)

Cc1cc(/C=C/C#N)cc(C)c1Nc1nc(Nc2ccc(C#N)cc2)ncc1N
EC50 (HIV-1; viral replication, single-round infection; RT mutant V106A/G190A/F227L): 1.4 ± 0.4 nM

COc1cc(F)c(C(=O)c2ccnc(Nc3ccc(C#N)cc3)n2)c(F)c1
EC50 (HIV-1; viral replication; MT4, RT Y181C mutant): 481 nM

CC[C@H](C)[C@H](NC(=O)[C@H](CCCN)NC(=O)[C@H](CC(=O)O)NC(=O)[C@H](CC(C)C)NC(=O)C(C)(CC(C)C)NC(=O)[C@@H](NC(=O)[C@H](CO)NC(=O)[C@H](Cc1ccc(O)cc1)NC(=O)[C@H](CC(=O)O)NC(=O)[C@H](CO)NC(=O)[C@@H](NC(=O)[C@H](Cc1ccccc1)NC(=O)[C@@H](NC(=O)CNC(=O)[C@H](CCC(=O)O)NC(=O)C(C)(C)NC(=O)[C@@H](N)Cc1ccc(O)cc1)[C@@H](C)O)[C@@H](C)CC)[C@@H](C)CC)C(=O)N[C@@H](Cc1c[nH]cn1)C(=O)N[C@@H](CCC(N)=O)C(=O)NC(C)(C)C(=O)N[C@@H](CC(=O)O)C(=O)N[C@@H](Cc1ccccc1)C(=O)N[C@H](C(=O)N[C@@H](CCC(=O)O)C(=O)N[C@@H](Cc1ccc(O)cc1)C(=O)N[C@@H](CCCCNC(=O)COCCOCCNC(=O)COCCOCCNC(=O)CC[C@H](NC(=O)CCCCCCCCCCCCCCCCCCC(=O)O)C(=O)O)C(=O)N[C@@H](CC(C)C)C(=O)N[C@@H](CCC(=O)O)C(=O)NCC(=O)NCC(=O)N1CCC[C@H]1C(=O)N[C@@H](CO)C(=O)N[C@@H](CO)C(=O)NCC(=O)N[C@@H](C)C(=O)N1CCC[C@H]1C(=O)N1CCC[C@H]1C(=O)N1CCC[C@H]1C(=O)N[C@@H](CO)C(N)=O)C(C)C (stereo partly drawn)
CL/F (human, type 2 diabetes; subcutaneous, 25 mg single dose, geometric mean): 0.347 mL/min
